Experimental data from different studies.
Protocols differ between the studies behind these lines. Numbers after ± are the reported error. Values after ≈ are worked out from the molar mass of the structure shown.
Chain of UniProt P22309 (whole entry, looked up): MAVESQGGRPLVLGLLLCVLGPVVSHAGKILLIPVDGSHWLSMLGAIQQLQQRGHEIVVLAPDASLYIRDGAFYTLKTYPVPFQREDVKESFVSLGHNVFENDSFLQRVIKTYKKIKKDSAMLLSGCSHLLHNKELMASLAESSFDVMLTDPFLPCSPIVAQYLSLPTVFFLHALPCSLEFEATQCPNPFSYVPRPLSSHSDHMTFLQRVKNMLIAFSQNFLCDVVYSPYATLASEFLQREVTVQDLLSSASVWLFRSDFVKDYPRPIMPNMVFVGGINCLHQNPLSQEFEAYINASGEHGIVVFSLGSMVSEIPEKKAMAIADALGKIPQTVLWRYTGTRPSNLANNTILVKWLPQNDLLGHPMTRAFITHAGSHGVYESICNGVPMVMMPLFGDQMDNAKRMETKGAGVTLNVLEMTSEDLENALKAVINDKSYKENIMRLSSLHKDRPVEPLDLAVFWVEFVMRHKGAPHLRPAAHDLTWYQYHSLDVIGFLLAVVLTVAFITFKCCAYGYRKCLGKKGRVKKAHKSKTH
Chain of UniProt P98170 (whole entry, looked up): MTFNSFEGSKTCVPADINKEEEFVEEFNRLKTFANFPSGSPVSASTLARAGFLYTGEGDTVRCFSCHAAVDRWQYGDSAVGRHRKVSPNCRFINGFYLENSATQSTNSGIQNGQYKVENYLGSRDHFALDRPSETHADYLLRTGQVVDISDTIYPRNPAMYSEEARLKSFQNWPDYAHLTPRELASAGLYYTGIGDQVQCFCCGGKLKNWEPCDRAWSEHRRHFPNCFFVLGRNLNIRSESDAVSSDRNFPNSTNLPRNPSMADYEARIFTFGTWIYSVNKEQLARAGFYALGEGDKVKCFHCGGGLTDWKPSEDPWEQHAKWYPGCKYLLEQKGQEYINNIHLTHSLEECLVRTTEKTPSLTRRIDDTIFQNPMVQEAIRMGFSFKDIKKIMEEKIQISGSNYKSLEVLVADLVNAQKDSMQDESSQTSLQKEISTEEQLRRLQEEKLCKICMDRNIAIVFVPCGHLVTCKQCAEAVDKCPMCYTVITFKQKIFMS
Chain of UniProt Q04609 (whole entry, looked up): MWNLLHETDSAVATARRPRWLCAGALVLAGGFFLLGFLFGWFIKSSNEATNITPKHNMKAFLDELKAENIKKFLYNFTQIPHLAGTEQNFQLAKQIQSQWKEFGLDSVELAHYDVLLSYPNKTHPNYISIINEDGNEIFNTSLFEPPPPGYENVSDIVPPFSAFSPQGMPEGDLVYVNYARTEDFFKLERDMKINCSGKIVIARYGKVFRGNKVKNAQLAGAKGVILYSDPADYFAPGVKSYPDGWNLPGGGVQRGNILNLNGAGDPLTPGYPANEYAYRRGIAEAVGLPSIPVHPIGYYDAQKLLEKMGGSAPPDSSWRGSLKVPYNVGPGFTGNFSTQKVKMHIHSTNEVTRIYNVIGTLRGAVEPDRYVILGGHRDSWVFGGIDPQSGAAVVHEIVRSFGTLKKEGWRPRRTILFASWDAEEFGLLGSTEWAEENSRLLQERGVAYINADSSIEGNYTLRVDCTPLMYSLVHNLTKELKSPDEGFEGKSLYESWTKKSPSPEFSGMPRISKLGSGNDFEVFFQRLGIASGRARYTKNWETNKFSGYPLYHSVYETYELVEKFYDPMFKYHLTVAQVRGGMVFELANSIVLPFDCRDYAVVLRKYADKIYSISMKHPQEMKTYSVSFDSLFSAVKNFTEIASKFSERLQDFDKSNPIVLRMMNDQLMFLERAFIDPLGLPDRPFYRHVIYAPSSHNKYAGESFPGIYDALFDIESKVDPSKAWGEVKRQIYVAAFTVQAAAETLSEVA
Chain of UniProt P40337 (whole entry, unmodified, looked up): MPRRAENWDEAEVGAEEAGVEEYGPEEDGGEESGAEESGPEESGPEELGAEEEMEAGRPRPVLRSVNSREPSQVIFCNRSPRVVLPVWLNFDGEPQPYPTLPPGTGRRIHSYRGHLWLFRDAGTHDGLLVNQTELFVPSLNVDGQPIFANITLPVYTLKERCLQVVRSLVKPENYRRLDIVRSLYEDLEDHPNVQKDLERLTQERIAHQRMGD
Chain of UniProt Q15303 (whole entry, looked up): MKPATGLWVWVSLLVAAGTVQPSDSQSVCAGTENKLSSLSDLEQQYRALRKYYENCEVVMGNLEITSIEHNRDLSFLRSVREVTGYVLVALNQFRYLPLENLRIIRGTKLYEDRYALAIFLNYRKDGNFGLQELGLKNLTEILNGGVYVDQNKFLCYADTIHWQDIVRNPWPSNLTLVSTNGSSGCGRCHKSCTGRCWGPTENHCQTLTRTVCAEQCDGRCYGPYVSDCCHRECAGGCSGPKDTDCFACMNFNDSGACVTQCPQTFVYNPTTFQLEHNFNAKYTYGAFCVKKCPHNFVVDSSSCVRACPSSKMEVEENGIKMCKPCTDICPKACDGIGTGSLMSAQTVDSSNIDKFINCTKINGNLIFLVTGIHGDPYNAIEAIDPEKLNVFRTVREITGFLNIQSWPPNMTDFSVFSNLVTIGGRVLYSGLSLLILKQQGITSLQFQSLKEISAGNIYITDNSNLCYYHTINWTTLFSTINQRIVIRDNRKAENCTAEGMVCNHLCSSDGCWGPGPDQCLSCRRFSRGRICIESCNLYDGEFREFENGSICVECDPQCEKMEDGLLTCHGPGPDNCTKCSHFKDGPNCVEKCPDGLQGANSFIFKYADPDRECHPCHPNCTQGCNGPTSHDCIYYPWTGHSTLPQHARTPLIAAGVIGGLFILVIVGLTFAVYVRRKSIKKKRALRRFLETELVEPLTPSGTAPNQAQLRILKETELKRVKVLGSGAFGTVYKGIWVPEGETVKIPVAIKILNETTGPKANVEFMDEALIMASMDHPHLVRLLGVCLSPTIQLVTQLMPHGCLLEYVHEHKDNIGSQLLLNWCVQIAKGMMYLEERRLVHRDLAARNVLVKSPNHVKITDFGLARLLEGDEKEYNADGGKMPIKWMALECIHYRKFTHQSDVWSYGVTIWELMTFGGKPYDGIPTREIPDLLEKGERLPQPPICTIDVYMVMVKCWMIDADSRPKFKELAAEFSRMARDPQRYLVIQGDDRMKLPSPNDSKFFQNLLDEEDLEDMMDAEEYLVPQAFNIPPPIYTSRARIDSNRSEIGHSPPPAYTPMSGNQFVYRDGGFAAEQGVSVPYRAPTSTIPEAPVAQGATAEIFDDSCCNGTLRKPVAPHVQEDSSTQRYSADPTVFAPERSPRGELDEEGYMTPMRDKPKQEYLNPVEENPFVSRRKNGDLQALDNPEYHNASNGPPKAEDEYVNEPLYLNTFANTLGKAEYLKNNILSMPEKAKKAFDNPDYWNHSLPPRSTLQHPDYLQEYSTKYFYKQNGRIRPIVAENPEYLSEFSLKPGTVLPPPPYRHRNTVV
Chain of UniProt Q9Y251 (whole entry, looked up): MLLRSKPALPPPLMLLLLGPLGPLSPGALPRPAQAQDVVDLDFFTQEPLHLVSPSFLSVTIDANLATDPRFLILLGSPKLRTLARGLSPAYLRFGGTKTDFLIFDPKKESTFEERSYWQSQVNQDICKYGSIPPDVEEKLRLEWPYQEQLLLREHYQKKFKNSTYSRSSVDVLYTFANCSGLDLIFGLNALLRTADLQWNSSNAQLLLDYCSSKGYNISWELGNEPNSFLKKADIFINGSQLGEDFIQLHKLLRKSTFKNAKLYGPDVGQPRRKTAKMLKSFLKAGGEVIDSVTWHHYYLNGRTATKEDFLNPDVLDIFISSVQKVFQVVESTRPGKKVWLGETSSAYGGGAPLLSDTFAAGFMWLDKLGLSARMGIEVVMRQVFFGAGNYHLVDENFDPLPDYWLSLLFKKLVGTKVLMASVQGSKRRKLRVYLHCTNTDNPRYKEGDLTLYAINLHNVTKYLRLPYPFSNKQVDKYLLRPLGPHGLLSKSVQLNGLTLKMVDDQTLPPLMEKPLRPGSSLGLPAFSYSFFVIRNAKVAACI
Chain of UniProt P16257 (whole entry, looked up): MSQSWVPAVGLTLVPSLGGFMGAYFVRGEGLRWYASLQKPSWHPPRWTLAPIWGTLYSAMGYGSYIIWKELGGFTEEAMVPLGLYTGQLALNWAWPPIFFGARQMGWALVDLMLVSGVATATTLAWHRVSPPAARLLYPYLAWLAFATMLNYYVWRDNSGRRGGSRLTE

SMILES | target or system | assay | test system | conditions | scale | quantity | value
COc1cc(CCC(C)=O)ccc1O | mouse mAb 1-F12 | antibody binding, indirect competitive ELISA | – | together with: coating antigen 4-OVA | – | IC50 | 0.381 µg/mL (≈ 1.96 µM)
COc1ccc(-c2cc(C(F)(F)F)nc(S(=O)(=O)CCCC(=O)Nc3ccc(F)cc3F)n2)cc1OC | Glucagon-like peptide 1 receptor (GLP1R, Homo sapiens, UniProt P43220) | affinity cooperativity, allosteric modulator | HEK-293T overexpressing GLP1R | together with: GLP-1(9-36) | – | cooperativity factor alpha | 247
CCCCC/C=C/C(=O)CCc1ccc(O)c(OC)c1 | mouse mAb 1-F12 | antibody binding, indirect competitive ELISA | – | together with: coating antigen 1-OVA | – | IC50 | 0.975 µg/mL (≈ 3.53 µM)
O=C1CCN(Cc2ccccc2)CC1C(C[N+](=O)[O-])c1ccccc1 (stereo not shown) | – | tail immersion test | BALB/c mice | ip, 50 mg/kg, 1 h | – | tail flick response | 54.1%
[64Cu+2].c1cnc(CNCc2ccc(CN3CCCN4CCNCCCN(CC4)CC3)cc2)nc1 | CXCR4 | – | NOD/SCID mouse, tumour | 90 min | reference: U87-stb-CXCR4 over U87 | uptake ratio | 7.71 ± 3.36
O=P(O)(O)O[C@@H]1[C@@H](O)[C@H](O)[C@H](O)[C@H](O)[C@H]1OP(=O)(O)O | Inositol 1,4,5-trisphosphate-gated calcium channel ITPR1 (Itpr1, Rattus norvegicus, UniProt P29994, del318-332/R568Q) | Ca2+ release | DT40, permeabilized | – | reference: R568Q over wild type | fold loss of potency | 1.6 fold
[64Cu+2].c1ccc(CNCc2ccc(CN3CCCN4CCNCCCN(CC4)CC3)cc2)nc1 | CXCR4 | – | NOD/SCID mouse, U87 and U87-stb-CXCR4 xenografts | iv, 90 min, no blocking dose | reference: U87-stb-CXCR4 tumour over muscle | tumour-to-muscle ratio | 61.1 ± 16.9
CN(CC(=O)c1ccc2[nH]c(=O)[nH]c2c1)Cc1ccco1 | Single-stranded DNA cytosine deaminase (AICDA, Homo sapiens, UniProt Q9GZX7) | deaminase activity, inhibitor, alkaline cleavage | purified GST-AID | 500 to 840 µM, pH 7.2, 37 °C, DMSO 100% | – | remaining activity | 17.4%
Cc1cc(CC(=O)N2C[C@H](O)C[C@H]2C(=O)NCc2ccccc2)on1 | von Hippel-Lindau disease tumor suppressor, with Elongin B/C (VHL, Homo sapiens, UniProt P40337) | isothermal titration calorimetry | – | concentration not given, 25 °C | – | binding enthalpy (ΔH) | -12.2 ± 0.2 kcal/mol
Cn1c(=S)c2[nH]c(SCCc3ccccc3)nc2n(C)c1=O | Androgen receptor (AR, Homo sapiens, UniProt P10275) | reporter gene, antagonist, PSA-luciferase | HeLa-A6 | 10 µM, 24 h, together with: 5 nM dihydrotestosterone | reference: maximal activity | remaining activity | 114%
C=C1CN(S(=O)(=O)c2ccc(C)cc2)CCCN(Cc2ccccc2)CCCN(S(=O)(=O)c2ccc(C)cc2)C1 | T-cell surface glycoprotein CD4 (CD4, Homo sapiens, UniProt P01730) | degrader, tGFP-P2A-BFP reporter flow cytometry, refers to: tGFP reporter fusion | HEK-293T transfected | 10 µM, 24 h | – | protein level reduction | 85%
N=C(N)NCCC[C@@H]1NC(=O)[C@H](CCCCNC(=O)CNC(=O)CNC(=O)CNC(=O)CC[C@H](NC(=O)CNC(=O)CNC(=O)CNC(=O)CN2CCN(CC(=O)O)CCN(CC(=O)O)CCN(CC(=O)O)CC2)C(=O)NCC(=O)NCC(=O)NCC(=O)NCCCC[C@@H]2NC(=O)[C@@H](Cc3ccccc3)NC(=O)[C@H](CC(=O)O)NC(=O)CNC(=O)[C@H](CCCNC(=N)N)NC2=O)NC(=O)[C@@H](Cc2ccccc2)NC(=O)[C@H](CC(=O)O)NC(=O)CNC1=O [indium-111 labelled] | – | – | female athymic nu/nu mice, intestine | intravenous, 4 h | – | tissue uptake | 5.09 ± 1.75 %ID/g
CCCN(CC(=O)N(CC(N)=O)Cc1cn(CCCNC(=O)CCCOc2cccc(-c3nc4ccc(-c5nc6ccc(N7CCN(C)CC7)cc6[nH]5)cc4[nH]3)c2)nn1)C(=O)CNCc1cn(CCCNC(=O)CCCOc2cccc(-c3nc4ccc(-c5nc6ccc(N7CCN(C)CC7)cc6[nH]5)cc4[nH]3)c2)nn1 | MBNL1–r(CUG)109 complex | MBNL1 displacement | 0.65 pmol r(CUG)109 | unit not given, together with: yeast tRNA 3.7 µM | reference: monomer 2 IC50 per module | multivalent effect | 2.2
O=C([O-])CN1CCN(CC(=O)[O-])CCN(C(CCC(=O)NCCCCCN(CCCC[C@H](NC(=O)N[C@@H](CCC(=O)O)C(=O)O)C(=O)O)C(=O)c2ccc(I)cc2)C(=O)O)CCN(CC(=O)[O-])CC1.[68Ga+3] (stereo partly shown) | Glutamate carboxypeptidase 2 (FOLH1, Homo sapiens, UniProt Q04609) | PET/CT | prostate cancer patients, bone metastases | 60 min | reference: lesion SUVmax over muscle SUVmean | mean tumour-to-background ratio | 26
CCc1cc(C)n2nc(-c3ccc(OCC[18F])cc3)c(CC(=O)N(CC)CC)c2n1 | Translocator protein (Tspo, Rattus norvegicus, UniProt P16257) | two-tissue compartment model | rat C6 glioma model, tumor | 60 min dynamic PET | – | K1 influx rate constant | 6.39 ± 1.1 mL/cm3/min
CN[C@@H](C)C(=O)N[C@H]1CCCCNC(=O)[C@H](Cc2ccccc2)NC(=O)[C@@H]2CCCN2C(=O)[C@@H](NC(=O)[C@H](C)NC)CCCCNC(=O)[C@H](Cc2ccccc2)NC(=O)[C@@H]2CCCN2C1=O | E3 ubiquitin-protein ligase XIAP, BIR3 domain (XIAP, Homo sapiens, UniProt P98170) | analytical gel filtration | – | 1.5-fold molar excess, BIR3 domain protein | – | apparent molecular mass | 31.4 kDa
CC(C)CCC[C@@H](C)[C@H]1CC[C@H]2[C@@H]3CC[C@H]4C[C@@H](O[C@@H]5O[C@H](COS(=O)(=O)O)[C@@H](O[C@H]6O[C@H](COS(=O)(=O)O)[C@@H](O[C@H]7O[C@H](COS(=O)(=O)O)[C@@H](O[C@H]8O[C@H](COS(=O)(=O)O)[C@@H](OS(=O)(=O)O)[C@H](OS(=O)(=O)O)[C@H]8OS(=O)(=O)O)[C@H](OS(=O)(=O)O)[C@H]7OS(=O)(=O)O)[C@H](OS(=O)(=O)O)[C@H]6OS(=O)(=O)O)[C@H](OS(=O)(=O)O)[C@H]5OS(=O)(=O)O)CC[C@]4(C)[C@H]3CC[C@]12C | Heparanase (HPSE, Homo sapiens, UniProt Q9Y251) | enzyme activity, inhibitor | – | – | – | Hill coefficient | 2.98 ± 0.16
NC(=O)C1CCNC(=O)C(CCCNC(=O)c2cnccn2)NC(=O)C(Cc2ccco2)NC(=O)C(CC2CC2)NC(=O)C=CC(=O)N1 (stereo not shown) | Receptor tyrosine-protein kinase erbB-4 (ERBB4, Homo sapiens, UniProt Q15303) | DNA-templated library selection | – | one selection round | – | enrichment factor | 0.63
CC(C)=CCCC(C)=CCc1cc(-c2coc3cc(OC4OC(C(=O)O)C(O)C(O)C4O)ccc3c2=O)ccc1O (stereo not shown) | UDP-glucuronosyltransferase 1A1 (UGT1A1, Homo sapiens, UniProt P22309) | glucuronidation, substrate, recombinant enzyme | – | – | – | Vmax | 148 pmol/min/mg

Some of these lines once more:
SMILES | target or system | assay | test system | conditions | scale | quantity | value
CC(C)CCC[C@@H](C)[C@H]1CC[C@H]2[C@@H]3CC[C@H]4C[C@@H](O[C@@H]5O[C@H](COS(=O)(=O)O)[C@@H](O[C@H]6O[C@H](COS(=O)(=O)O)[C@@H](O[C@H]7O[C@H](COS(=O)(=O)O)[C@@H](O[C@H]8O[C@H](COS(=O)(=O)O)[C@@H](OS(=O)(=O)O)[C@H](OS(=O)(=O)O)[C@H]8OS(=O)(=O)O)[C@H](OS(=O)(=O)O)[C@H]7OS(=O)(=O)O)[C@H](OS(=O)(=O)O)[C@H]6OS(=O)(=O)O)[C@H](OS(=O)(=O)O)[C@H]5OS(=O)(=O)O)CC[C@]4(C)[C@H]3CC[C@]12C | Heparanase (HPSE, Homo sapiens, UniProt Q9Y251) | enzyme activity, inhibitor | – | – | – | Hill coefficient | 2.98 ± 0.16
COc1cc(CCC(C)=O)ccc1O | mouse mAb 1-F12 | antibody binding, indirect competitive ELISA | – | together with: coating antigen 4-OVA | – | IC50 | 0.381 µg/mL (≈ 1.96 µM)
